Measured values from different studies.
A part holds a random share of what one study measured.

Set 1
Target: Histone acetyltransferase KAT6A, winged helix 1, GST fusion (KAT6A, Homo sapiens, UniProt Q92794, residues 1-85)
Method: protein binding microarray
Molecule type: double-stranded DNA, one strand shown
Sample: in vitro
Concentration: not given
Setting: 8-mer, flanks averaged, mean of 2 arrays, mostly near background
Relative to: not given
Reading: higher = stronger binding
Quantity: E-score
Target sequence (chain): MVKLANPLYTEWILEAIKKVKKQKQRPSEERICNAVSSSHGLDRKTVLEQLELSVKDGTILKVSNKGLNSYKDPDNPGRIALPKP
GCAACAGA: -0.0478
ACGTCTGA: -0.132
CGACCAAG: -0.0869
AGTCGCCC: 0.0404
AGAACATG: -0.0517
ACATCCTC: -0.0858
CTAGTCTA: -0.196
CTTATCGC: 0.137
AGTGACCG: 0.0575
ACGCCTAC: 0.113
CCTTTCCC: 0.0771
CACGGGGA: 0.273
ACCTATAT: -0.104
CAATATAA: 0.0329
GGAAGGAC: -0.0271
GCTACACC: 0.122
ACGGAGGG: 0.0771
CCGGGTAA: 0.157
AGCTCTGA: -0.0385
CGTACACG: 0.141
ATATGGGC: -0.0481

Set 2
Target: Prothrombin, mature alpha-thrombin (F2, Homo sapiens, UniProt P00734)
Method: aptamer microarray, sandwich
Molecule type: DNA with 2'F-ANA
Sample: in vitro
Concentration: 200 nM
Setting: whole 15-mer aptamer, many near background
With: Cy3 exosite-II aptamer, 400 nM
Reading: higher = stronger binding
Quantity: mean fluorescence intensity
Sequence: GGTTGGTGTGGTTGG
2'F-ANA at 1 2 7 9 12: 346 a.u.
2'F-ANA at 1 2 5 8 9 10 11: 47.2 a.u.
2'F-ANA at 1 3 10 12 14: 59.9 a.u.
2'F-ANA at 2 3 5 6 7 8 9 10 11 13: 54 a.u.
2'F-ANA at 2 4 8 11 12 13 14 15: 110 a.u.
2'F-ANA at 1 2 3 5 6 8 14 15: 50.1 a.u.
2'F-ANA at 1 2 9 11 13 14 15: 54.1 a.u.
2'F-ANA at 1 4 6 8 10 11 14 15: 47 a.u.
2'F-ANA at 2 5 11 12 13 15: 96.6 a.u.
2'F-ANA at 1 2 4 5 6 7 8 9 10 11 12 14: 46.5 a.u.
2'F-ANA at 1 2 3 5 7 10 12 13 14 15: 46.1 a.u.
2'F-ANA at 3 5 6 11 12 14: 52.2 a.u.
2'F-ANA at 2 4 5 6 7 10 13: 45.4 a.u.
2'F-ANA at 1 2 3 4 10 11 12: 72.7 a.u.
2'F-ANA at 5 7 10 12 13 15: 50.4 a.u.
2'F-ANA at 1 2 3 10 12 13 15: 91.2 a.u.
2'F-ANA at 3 4 5 6 9 10 11 12 13 14 15: 50.4 a.u.
2'F-ANA at 1 2 4 7 8 9 10 11 12 14: 147 a.u.
2'F-ANA at 1 5 7 8 11 14 15: 55.7 a.u.
2'F-ANA at 2 5 6 7 8 10 11 13 14 15: 53.4 a.u.
2'F-ANA at 1 2 4 5 10 11 12 15: 71.2 a.u.
2'F-ANA at 1 5 6 7 8 9 11 12 15: 111 a.u.
2'F-ANA at 1 3 5 7 9 11 14: 48.7 a.u.
2'F-ANA at 1 3 5 6 7 10 11 15: 51.6 a.u.
2'F-ANA at 2 3 4 8 9 15: 641 a.u.

Set 3
Target: Hepatocyte nuclear factor 3-alpha (Foxa1, Mus musculus, UniProt P35582, residues 1-468, full length assumed)
Method: EMSA with sequencing
Molecule type: double-stranded DNA, one strand shown
Sample: in vitro
Concentration: 10 and 20 nM
Setting: whole designed probe, mean of two concentrations, ends assumed
Relative to: negative control set to 0
Reading: higher = stronger binding
Quantity: normalised bound fraction
Constant ends, left off below: GTGAGCGGTGCCCATTGATGGGGAAC … TTTCACTGGGATCGTGGGGAC
Target sequence (chain): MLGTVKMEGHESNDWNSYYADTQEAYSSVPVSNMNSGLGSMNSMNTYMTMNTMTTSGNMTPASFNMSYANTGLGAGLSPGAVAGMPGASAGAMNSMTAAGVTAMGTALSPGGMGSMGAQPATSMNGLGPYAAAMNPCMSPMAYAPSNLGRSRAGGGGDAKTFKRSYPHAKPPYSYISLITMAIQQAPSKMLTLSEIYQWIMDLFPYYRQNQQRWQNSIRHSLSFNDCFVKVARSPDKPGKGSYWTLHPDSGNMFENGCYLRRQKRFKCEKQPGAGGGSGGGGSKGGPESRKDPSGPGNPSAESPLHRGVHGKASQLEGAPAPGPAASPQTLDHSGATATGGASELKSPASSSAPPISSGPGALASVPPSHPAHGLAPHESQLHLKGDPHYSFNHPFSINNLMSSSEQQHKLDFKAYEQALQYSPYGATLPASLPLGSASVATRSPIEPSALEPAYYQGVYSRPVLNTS
CAAGTTTGTGGTCCAGGAGCAACAGGTTATGCCATACAGCCTAGGTGTGTAGTAGGCTACACACCGCCATGACTCATGTTGTACACTCTACAATGTTTGCACAATGATGAAATCCCATGTCACATTTCTCAGAACATACCCCTGTTGTTAAGCGATACATGACTGTACTTTTTTTAAAAAGTCCAAGGATATA: 0.447 ratio
ATAGTGGTGAGCTTCTCTATGTTGTGTCTACATGGCTATGATGACAAGTGGAGTTATACGCCTGTGCTCTATACTCACTGAGTCACGAAGAATGTAATCTTCCTACCTCGGCCTATCCTTGACCAAAGCACAGCCATGTTCCTTACACTCTGGGTCCCCACGGTTCAGACAGAAGTCTCTCTGACAGACAACA: 0.0623 ratio
CATTAGAGTCAAAGTTGTTAAGGGGAGCTAGTCATAGCTACCACGTGGCCAGGCATGTGGAACCAGACACCAGGCACACATCATGTAACATCATATTTACTTTAAATAATGAATCATCACTAGTTCATAGTGACACACTACTTGAGATATATAGAATAACATTATTACCCAGTAAGTATGTGAACATTCCGAT: 0.323 ratio
ATCTTCCCCCTCTTCCTTGCCCCACCAGCTCACCTACGGGGGTTATTTGCACAAAGGAAAATAAATAAAGCCGGCATTCGTTAACGCAGTTCACGCGCATACTGCTGTTTGCTCTGCATCTAACATGGTCCTTACGCGAGGCGTGGCTCCGGGAGAGCAAAGCACCGTGTCAGGCGCATGATCCGGGGTGGCC: 0.4 ratio
GAAATAAAATGCGATCACTTTTCACAATGATTCTTGGAGAAACCACATAATGGCTAAAGCAGCCTAAAATTACTTGGGATAGGTTAAATAAAGTAATCTTGGCTTATTAGATTTCCATAGAGTTAATAGTCTACATAGTCTAATGTTTTATAGACAAAACCTCTGTCATTCTGTTTTATAGAGTAACTCCTAC: 0.00346 ratio
ATCTTCCCCCTCTTCCTTGCCCCACCAGCTCACCTTCCCGGGTTATTTGCAGATAGGAAAATAAATAAAGCCGGCATTCGTTAACGCAGTTCACGCGCATACTGCTGTTTGCTCTGCATGAATCATGGTCCTTACGCGAGGCGTGGCTCCGGGAGAGCAAAGCACCGTGTCAGGCGCATGATCCGGGCTCGCC: 0.354 ratio
AATACATTTCCTATCATCAATATATAGATTAGACAGATAATTTTCAATATTTGCAGAATGTTTCATTCAATTGTGATCCATAGTTTATATACCCTGTTTACATTGAGTTTATTTTAAGAGAGGGAATAATTGAATTTTTTTGAGAAATATTAAGAATGGGAGACAAAGGGAAAATTGGAAATTCAAGGGCTCA: 0.252 ratio
ATCTTCCCCCTCTTCCTTGCCCCACCAGCTCACCTTCCCGGGTTATTTGCAGATAGGAAAATAAATAAAGCCGGCATTCGTTAACCCTCTTCTGGCGCAAACTGCTGTTAGGGATGCTTTGTCCATGATCCTTTGGCGACGCCAGGCTCCGGGAGAGCAAAGCACCGTGTCAGGGCCATGATCCGGGGTGGCC: 0.346 ratio

Set 4
Target: RNA binding protein fox-1 homolog 2, RRM domain, GST-SBP tag (RBFOX2, Homo sapiens, UniProt O43251-10, residues 100-194)
Method: RNA Bind-n-Seq
Molecule type: RNA
Sample: in vitro
Concentration: 365 nM
Setting: natural RNA segment, single round, ends assumed
Relative to: no-protein control
Reading: higher = stronger binding
Quantity: RBNS enrichment (R)
Constant ends, left off below: GGGAGUUCUACAGUCCGACGAUC … UGGAAUUCUCGGGUGCCAA
Target sequence (chain): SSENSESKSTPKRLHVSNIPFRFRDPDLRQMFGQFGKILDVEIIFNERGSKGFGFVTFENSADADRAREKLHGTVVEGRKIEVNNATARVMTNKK
AUGGAGGCCCCUUCCUGCUGACCUUGCACGCGAGGGAUGCUACUAGGGACUGCUGGGGAUCUUUUCUUUCUUUCCUUCAGUAUUUGGUACUUUACCAGAGAGGUGUACAU: 0.343
AGUACUGGGCCUUUCUCAGAAGACUUAAUGUACCUGAAGUUUCUGAAAUAUUGCAAAGUUCAGGCUGGUGCUGCCAAAAAGAAAAGUGAUGUAAAGUUUAUUUUUAAGAA: 1.11
AACACUUGGGAUUUUUCUCCUAUGUCCCGAGGUCUGGUCUUGAUUUCUUUUUUGGGUUUCUUUCUAGGAAAAUGAGAAGUGCAUGCAAGGGGCAGGAGAUGACCCUCCCC: 23.3
ACGUCGGAUGCUACCCCACUAUGACAGAGGAUUGUGGUCACAACUUGAUGGCUGCGAAGACCUACCCUCCGUUUUUCUACUAGAUAGGAGGAUGGUAGAAGUUUGGCUGC: 0.392
UCGUUUGGGCGUAACAACUAAGUCUCUUUCCAGAUCAGUAUAAUAAAGGAGUGAUGUGCAAUACUUUACUGUUUGUCUUGUGUCUGUGGUCUGAGAAAACCACAGCAUUC: 8.11
GGCCAGGUGGGGCUGCCUCAGUCCUGUCCCCUUGGGCACUGAGGAGAGGGGCCCAUUCACCUUUCUCCUAGAAUGCUGUUGUAAAUAAACAAAUGGAUCCCUGGAAACUU: 0.571
GAGACAAGAUUGAGAAAGAGCCAUGUGGCUUGGCUCUAGAAACGUCAUUAUCAUUAGGACCAUCAGAUUUUAGAUUAAGCUGCUAUUGAAUUAAUAAAAUCCCAAUGAAG: 0.961
CAGGUAAUACAGAUACUGGCACUGAUUGUAAUUAAAAUGAGAGAAAACUCUAGCGCAUCUUCUGGCACGGUUUUAACAACGUGUUUGUGUUGAAUUUCCUUUUUAUGCAU: 1.11
GUGUGUCCCUCUCCCUAGUCUAAAAAGCAAUUGAAAAGGUCUAUGCAAUAAAGGUUGUUGCUUCCCUUAGGCCUUCACCCCUUCCACCCGACAUCCCUUUCAGUUAUUGU: 0.535
AUAAAUUUUAUGAACCCCAGGCAUACUGCUUGUUUUUUUAAAAAAAAAUAAAACUCAAAAUUGAUCUACAAAACACUUUGUGAUAGUAGAUUGGGGUAGAUAUUUUUACC: 0.62
AGUUGAAUGCAGAUUUUUAUCCAUAGAUAACUGUAGUGUUUUGAAAUGAUAGGCCCUACCUUUGAAGUUUCUAAGACUUAUUAUGGGAUGUAAAUCUGUUUUUUAAAAAC: 0.42
AAGUAGUUUAAAUGAGGGAAAGGAAAAUGCAGACCACAUCUUGCCUGCCUCGUAAGCGUUUCCUCCCUGAAUUGAAGUACAUAGGCUAAUAUAUUAUUUUGUAGUAUCUC: 1.8

For quick reference, copied from above (set 1):
CTTATCGC: 0.137
ATATGGGC: -0.0481
AGTCGCCC: 0.0404
GGAAGGAC: -0.0271
